Results gathered from unrelated publications.
Parts stem from different laboratories: compare values within a part only.

Series 1 — technique: aptamer microarray, sandwich; form: DNA with 2'F-ANA; sample: in vitro; tested at: 200 nM; with: Cy3 exosite-II aptamer, 400 nM; reading: higher = stronger binding; strand: GGTTGGTGTGGTTGG
Target: Prothrombin, mature alpha-thrombin (F2, Homo sapiens, UniProt P00734)
Setting: whole 15-mer aptamer, many near background
`2'F-ANA at 1 3 5 6 7 8 9 11 13 14 15` — result for “mean fluorescence intensity”: 48.3 a.u.
Under “mean fluorescence intensity”, `2'F-ANA at 1 3 4 5 7 11 13 14 15` is recorded as 69.3 a.u.
`2'F-ANA at 1 5 9 15` — result for “mean fluorescence intensity”: 58.2 a.u.
For `2'F-ANA at 4 6 8 9 10`, “mean fluorescence intensity” read 80.7 a.u.
Under “mean fluorescence intensity”, `2'F-ANA at 4 6 9 10 12 13 14 15` is recorded as 57.1 a.u.

Series 2 — technique: RNA Bind-n-Seq; form: RNA; sample: in vitro; tested at: 365 nM; relative to: no-protein control; reading: higher = stronger binding
Target: RNA binding protein fox-1 homolog 2, RRM domain, GST-SBP tag (RBFOX2, Homo sapiens, UniProt O43251-10, residues 100-194)
Setting: natural RNA segment, single round, ends assumed
Residues (chain): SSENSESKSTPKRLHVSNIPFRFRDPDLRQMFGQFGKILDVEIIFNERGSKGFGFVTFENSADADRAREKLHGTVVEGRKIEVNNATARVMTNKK
`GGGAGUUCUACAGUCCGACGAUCUUGCUGCAGAUGGAACAAAUGCCGCCUGGCUUUGUAUUCCCCUUUAGGAUUCUAUUACAUAUGCAAUUUGAGGUCUAACUUGUCCCUUUCCCUGCCAGCCAACCCCCACCUGGAAUUCUCGGGUGCCAA`: “RBNS enrichment (R)” 0.51.
For `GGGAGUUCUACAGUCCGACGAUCGCUUCUGCCGGGUUUUUGUACAUGUAAACACUGUCAAGCUGUGAAAGAAAGUGGCUGGAGGUGUGUUUGGUGUGAGAGGUGAGCAAUAAAGUACCUGCACAUUCUCUCCUUGGAAUUCUCGGGUGCCAA`, “RBNS enrichment (R)” read 0.623.
Under “RBNS enrichment (R)”, `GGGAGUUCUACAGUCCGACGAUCUCAUGUUAUCCAAGCAGUGGGUUAACUAAAGGGCCCAUUCAUCCUUUAUGCCCGGUACACACAACAUAUGUUCAGUUGUUCUUAACUACUUUUGUCAUUUGUUUUUUGGAUGGAAUUCUCGGGUGCCAA` is recorded as 0.267.
`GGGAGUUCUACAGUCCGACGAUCCCUUCAGGCCUGAUGCCUCAGGCCUGAUUCCCUCCUUUUAAAGCAAUACCUUCAGGUCUGCCAUGCCAUCAGCCAGCCUGGUUCCUUCUGAGGGCAACCUGGGUCUGGUGUGGAAUUCUCGGGUGCCAA`: “RBNS enrichment (R)” 0.256.
`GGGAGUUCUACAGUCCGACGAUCCUGCAGCUGUCAUGGCUUUACAGUCACUUGGGAAAUGCAAGCCACUGUUAAAGCUUUGUCCUGUUCAUCACUGUCCCUGCUCCUGGCAUAACACUUCCAGAGGCUUUCCUUGGAAUUCUCGGGUGCCAA`: “RBNS enrichment (R)” 0.221.

Series 3 — technique: protein binding microarray; form: double-stranded DNA, one strand shown; sample: in vitro; tested at: not given; relative to: not given; reading: higher = stronger binding
Target: Histone acetyltransferase KAT6A, winged helix 1, GST fusion (KAT6A, Homo sapiens, UniProt Q92794, residues 1-85)
Setting: 8-mer, flanks averaged, mean of 2 arrays, mostly near background
Residues (chain): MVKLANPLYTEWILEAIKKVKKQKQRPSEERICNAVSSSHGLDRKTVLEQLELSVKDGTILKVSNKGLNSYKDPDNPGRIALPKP
`GAGGCTGC` gave an E-score of -0.161.
`CAGGCTTC` gave an E-score of 0.0627.
For `CCAACCCA`, the E-score was -0.266.
For `ATGAGAGG`, the E-score was -0.279.
`GTCCATCA` has an E-score of -0.125.
For `GATCGATC`, the E-score was -0.105.
With `CCTTTTTA` the E-score was -0.167.

Other studies, line by line
`PhoQ, residues 284 288 289 292 302 303 HSSMNL` gave a fold induction of 2.83 (PhoP, residues 12 14 15 18 19 DLLYY (Escherichia coli, UniProt P23836); Sort-seq, measured: YFP reporter; E. coli; PhoQ-PhoP variant library, with: 10 µM Mg2+; relative to: high Mg2+ state, higher = stronger signaling).

Some of these lines once more (series 1):
`2'F-ANA at 1 5 9 15` — result for “mean fluorescence intensity”: 58.2 a.u.
For `2'F-ANA at 4 6 8 9 10`, “mean fluorescence intensity” read 80.7 a.u.
Under “mean fluorescence intensity”, `2'F-ANA at 4 6 9 10 12 13 14 15` is recorded as 57.1 a.u.
